Published values of several laboratories.
Compare with care: the assays were run in different laboratories. “And” joins repeats or separate records; there may be more than shown. ± marks the error that the study gave.

| SMILES | test | system | setting | how to read | quantity | result |
| --- | --- | --- | --- | --- | --- | --- |
| C=CC(=O)NC1CCN(c2ncc3ncnc(Nc4ccc(Oc5ccc6c(c5)ncn6C)c(C)c4)c3n2)CC1 | measured: total drug-related adverse events | human male | oral, dose not given, AEs, treatment-related, on drug, CTCAE |  | adverse events incidence | 6% |
| CCN1/C(=C/C(C)=O)Sc2ccc(F)cc21 |  | cynomolgus monkey | oral, 30 mg/kg, 24 h post-dose |  | PR interval | 90 ± 4 ms |
| Cc1cc(NC2CCN(C(=O)OC3CCN(C(=O)/C=C/CN(C)C)C3)CC2)n2ncc(C(C)C)c2n1 (stereo not shown) | Phase I dose escalation CTCAE v4.0, measured: Headache | patients with advanced solid tumours | dose not given, TIW dosing any grade |  | patients with adverse event | 9% |
| Cc1ccc([C@@H]2O[C@H](CO)[C@@H](O)[C@H](O)[C@H]2O)cc1Cc1ccc(-c2ccc(F)cc2)s1 |  | Japanese type 2 diabetes patients | 400 mg, day 17, 24 h urine collection | reference: baseline | urinary magnesium excretion change | 25.7 mg |
| CCn1cc(C(=O)N2CCOCC2)c(=O)c2cc(NC3Cc4ccccc4C3)cnc21 |  | human, fed | oral tablet, 300 mg single dose, arithmetic mean |  | AUC(0-last) | 13800 ng·h/mL |
| COc1nnc2ccc(N3CCC(c4ccc(OCCN5CCN(C)C(=O)[C@H]5C)cc4)CC3)nn12 |  | human, plasma | oral, 5 mg once daily, single dose, monotherapy |  | AUClast | 0.0778 µM·h |
| CN1C[C@H](COc2nccc3c(NCc4ccco4)cc(Cl)nc23)OC1=O |  | rabbit NZW female, isolated Langendorff heart | 10 µM, 15 min |  | left ventricular peak systolic pressure | 100 mmHg |
| CCc1c(-c2ccccc2)c(-c2ccccc2)nn1-c1ccccc1-c1cccc(OCC(=O)O)c1 |  | female Sprague-Dawley rat, ovary | oral, 10 mg/kg, 8 h |  | concentration | 197 ng/g |
| Cc1ccc(C(=O)N(CCCN)C(c2nc3snc(C)c3c(=O)n2Cc2ccccc2)C(C)C)cc1 (stereo not shown) | hypophosphataemia grade ≥3 (CTCAE) | human patients | intravenous, 4 mg/day |  | patients with adverse event | 0% |
| Oc1ccc(/C=C/c2cc(O)cc(O)c2)cc1 |  | rat, azoxymethane-injected, blood at sacrifice | 10 mg/kg |  | creatinine | 0.29 mg/dL and 0.33 mg/dL and 0.32 mg/dL |
| COc1ccnc(C(N)=O)c1O | aerobic dark soil incubation | silt loam soil | 20 °C, persistence endpoint |  | DT50 | 8.9 days |
| COc1ccc([C@@H](O)c2cc(-c3ncnc4cc(N5CCOCC5)ccc34)c(F)cc2Cl)nn1 | geometric mean | healthy volunteers, urine | oral, 100 mg, fasted tablet |  | renal clearance | 5.15 mL/min |
| Cc1cn([C@H]2C[C@H]([18F])[C@@H](CO)O2)c(=O)[nH]c1=O | PET/CT, bi-exponential fit | Sprague-Dawley rat, nasal cavity | intranasal | reference: dose | nasal clearance amplitude B | 11.6% |
| N#Cc1ccc2c(c1)[C@H]1CCCN(C(=O)c3ccc4[nH]cnc4c3)[C@H]1C2 |  | human | 40 mg, day 7 |  | maximum ACTH level | 12.1 pmol/L |
| COc1cc(Nc2ncc3c(n2)-c2ccc(Cl)cc2C(c2c(F)cccc2OC)=NC3)ccc1C(=O)O | measured: Hyperglycemia, all grades | cancer patients, phase 1/2 | oral, dose not given, with: pembrolizumab |  | patients with adverse event | 67% |
| COc1ccc(/S(C)=N\C(=O)C(C)(C)C)cc1 (stereo not shown) |  | human liver microsomes |  | reference: hepatic blood flow | metabolic stability | 27% |
| CNC(=O)c1cccc(-c2ccc3c(N4CCOC[C@@H]4C)nc(N4CCOC[C@@H]4C)nc3n2)c1 |  | patients with advanced solid tumours, plasma | oral, 35 mg, all dose levels, with: navitoclax |  | Cmin,ss | 312 ± 350 ng/mL |
| C=CCN1CC(=O)N2[C@@H](Cc3ccc(O)cc3F)C(=O)N(Cc3cccc(N4CC(N5CCN(CC)CC5)C4)n3)C[C@@H]2N1C(=O)NCc1ccccc1 |  | advanced solid tumour patients | 20 mg twice daily, treatment-related, any grade |  | patients with ALT increased | 0% |
| NC(=S)NN=Cc1ncccc1N | LC-MS/MS | human, plasma | oral, dose not given, 1 weeks, estimated over one week | reference: intravenous regimen | drug exposure ratio | 2.5 fold |
